Published values pooled from the literature.
Each numbered part is a random draw from the data of one study; scales do not carry over between parts. Substitutions count along the parent as printed.
UniProt Q9LQE8, sequence (whole entry, looked up): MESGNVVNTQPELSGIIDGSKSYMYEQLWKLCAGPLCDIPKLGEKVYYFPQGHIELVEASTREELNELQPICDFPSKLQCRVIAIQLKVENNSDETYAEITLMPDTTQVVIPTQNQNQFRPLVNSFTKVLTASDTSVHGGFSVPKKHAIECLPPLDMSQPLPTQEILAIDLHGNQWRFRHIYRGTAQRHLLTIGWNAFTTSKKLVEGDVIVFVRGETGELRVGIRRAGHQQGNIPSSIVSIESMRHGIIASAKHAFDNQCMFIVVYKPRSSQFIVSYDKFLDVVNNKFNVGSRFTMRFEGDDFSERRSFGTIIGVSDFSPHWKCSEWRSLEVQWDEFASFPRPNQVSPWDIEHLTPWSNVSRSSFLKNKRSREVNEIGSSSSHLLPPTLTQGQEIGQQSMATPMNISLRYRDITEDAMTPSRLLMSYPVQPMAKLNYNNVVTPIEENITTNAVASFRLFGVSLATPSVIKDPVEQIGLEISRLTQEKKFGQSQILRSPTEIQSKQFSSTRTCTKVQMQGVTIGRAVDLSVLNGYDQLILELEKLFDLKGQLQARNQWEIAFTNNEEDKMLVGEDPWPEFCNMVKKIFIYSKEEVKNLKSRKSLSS
UniProt Q9SKN5, sequence (whole entry, looked up): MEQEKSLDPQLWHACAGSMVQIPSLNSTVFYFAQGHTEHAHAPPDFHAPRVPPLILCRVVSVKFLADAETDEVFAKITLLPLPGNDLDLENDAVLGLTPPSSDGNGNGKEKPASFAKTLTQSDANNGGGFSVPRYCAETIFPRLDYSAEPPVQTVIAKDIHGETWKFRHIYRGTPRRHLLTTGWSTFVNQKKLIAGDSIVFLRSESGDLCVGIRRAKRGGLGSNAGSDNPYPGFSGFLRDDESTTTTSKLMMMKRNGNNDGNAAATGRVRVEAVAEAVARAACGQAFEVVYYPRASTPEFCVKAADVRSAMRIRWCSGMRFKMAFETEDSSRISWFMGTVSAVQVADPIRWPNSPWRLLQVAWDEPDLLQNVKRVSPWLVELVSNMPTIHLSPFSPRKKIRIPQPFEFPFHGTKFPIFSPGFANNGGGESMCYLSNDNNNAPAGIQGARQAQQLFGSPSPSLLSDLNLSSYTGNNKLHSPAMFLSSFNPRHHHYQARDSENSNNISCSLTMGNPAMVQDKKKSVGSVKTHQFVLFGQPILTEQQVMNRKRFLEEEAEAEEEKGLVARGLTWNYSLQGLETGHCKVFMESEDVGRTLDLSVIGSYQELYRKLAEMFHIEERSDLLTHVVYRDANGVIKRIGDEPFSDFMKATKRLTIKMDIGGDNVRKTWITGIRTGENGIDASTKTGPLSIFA
UniProt P93022, sequence (whole entry, looked up): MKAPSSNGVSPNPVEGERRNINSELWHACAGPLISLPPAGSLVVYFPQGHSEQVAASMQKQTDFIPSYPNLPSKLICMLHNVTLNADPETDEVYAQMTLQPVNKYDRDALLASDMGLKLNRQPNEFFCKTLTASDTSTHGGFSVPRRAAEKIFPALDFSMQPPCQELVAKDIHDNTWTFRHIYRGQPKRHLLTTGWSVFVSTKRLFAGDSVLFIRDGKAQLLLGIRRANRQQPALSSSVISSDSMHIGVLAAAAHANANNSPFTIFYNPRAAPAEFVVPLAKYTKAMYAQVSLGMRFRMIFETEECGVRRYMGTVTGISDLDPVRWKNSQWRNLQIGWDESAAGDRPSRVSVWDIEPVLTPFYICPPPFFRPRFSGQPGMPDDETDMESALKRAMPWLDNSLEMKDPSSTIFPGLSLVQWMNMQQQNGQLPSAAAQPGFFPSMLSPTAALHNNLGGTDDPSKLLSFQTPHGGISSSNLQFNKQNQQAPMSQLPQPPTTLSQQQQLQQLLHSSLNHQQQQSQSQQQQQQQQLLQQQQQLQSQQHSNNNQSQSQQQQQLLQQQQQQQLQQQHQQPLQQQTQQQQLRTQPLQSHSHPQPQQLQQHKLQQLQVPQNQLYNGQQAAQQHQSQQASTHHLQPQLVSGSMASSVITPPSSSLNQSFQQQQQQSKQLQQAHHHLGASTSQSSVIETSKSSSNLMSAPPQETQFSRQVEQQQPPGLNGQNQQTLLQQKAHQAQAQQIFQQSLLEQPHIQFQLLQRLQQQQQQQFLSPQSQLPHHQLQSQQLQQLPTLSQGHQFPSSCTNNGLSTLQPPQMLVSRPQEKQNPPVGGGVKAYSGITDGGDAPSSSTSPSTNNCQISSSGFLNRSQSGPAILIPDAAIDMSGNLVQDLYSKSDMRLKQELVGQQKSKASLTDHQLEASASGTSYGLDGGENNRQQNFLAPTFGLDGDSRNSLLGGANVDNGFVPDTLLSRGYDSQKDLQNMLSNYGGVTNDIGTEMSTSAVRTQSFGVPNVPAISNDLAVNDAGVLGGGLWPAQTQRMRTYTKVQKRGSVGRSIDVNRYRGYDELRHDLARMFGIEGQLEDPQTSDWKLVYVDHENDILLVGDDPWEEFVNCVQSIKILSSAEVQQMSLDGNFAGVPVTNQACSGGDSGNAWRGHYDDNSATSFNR
UniProt Q94JM3, sequence (whole entry, looked up): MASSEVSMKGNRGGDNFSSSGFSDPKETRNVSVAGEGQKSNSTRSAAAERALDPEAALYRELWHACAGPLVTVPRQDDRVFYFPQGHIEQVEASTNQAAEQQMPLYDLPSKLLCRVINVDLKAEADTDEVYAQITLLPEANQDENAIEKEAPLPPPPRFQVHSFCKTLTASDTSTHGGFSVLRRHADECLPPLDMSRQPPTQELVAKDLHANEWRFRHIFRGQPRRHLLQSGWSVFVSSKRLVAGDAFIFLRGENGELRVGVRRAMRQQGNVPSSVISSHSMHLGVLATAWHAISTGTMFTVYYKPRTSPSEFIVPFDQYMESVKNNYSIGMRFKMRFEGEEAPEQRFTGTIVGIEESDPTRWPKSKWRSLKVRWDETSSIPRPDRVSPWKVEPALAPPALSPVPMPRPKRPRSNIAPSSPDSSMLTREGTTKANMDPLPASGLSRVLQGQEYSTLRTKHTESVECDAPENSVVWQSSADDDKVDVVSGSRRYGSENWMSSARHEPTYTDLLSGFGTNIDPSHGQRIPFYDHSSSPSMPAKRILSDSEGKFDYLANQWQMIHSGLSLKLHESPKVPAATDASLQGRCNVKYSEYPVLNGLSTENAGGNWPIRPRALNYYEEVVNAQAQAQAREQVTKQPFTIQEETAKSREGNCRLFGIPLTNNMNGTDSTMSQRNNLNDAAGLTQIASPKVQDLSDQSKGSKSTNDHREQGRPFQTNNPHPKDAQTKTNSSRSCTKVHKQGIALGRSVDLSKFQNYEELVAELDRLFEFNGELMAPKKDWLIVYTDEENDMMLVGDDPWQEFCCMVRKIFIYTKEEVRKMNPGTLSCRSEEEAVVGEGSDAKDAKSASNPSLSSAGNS
UniProt Q9FKM7, sequence (whole entry, looked up): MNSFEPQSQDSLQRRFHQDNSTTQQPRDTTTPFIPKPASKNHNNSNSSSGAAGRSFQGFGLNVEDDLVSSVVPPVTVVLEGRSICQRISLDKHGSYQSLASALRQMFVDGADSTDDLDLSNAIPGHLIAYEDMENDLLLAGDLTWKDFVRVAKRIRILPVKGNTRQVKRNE
UniProt Q9FGV1, sequence (whole entry, looked up): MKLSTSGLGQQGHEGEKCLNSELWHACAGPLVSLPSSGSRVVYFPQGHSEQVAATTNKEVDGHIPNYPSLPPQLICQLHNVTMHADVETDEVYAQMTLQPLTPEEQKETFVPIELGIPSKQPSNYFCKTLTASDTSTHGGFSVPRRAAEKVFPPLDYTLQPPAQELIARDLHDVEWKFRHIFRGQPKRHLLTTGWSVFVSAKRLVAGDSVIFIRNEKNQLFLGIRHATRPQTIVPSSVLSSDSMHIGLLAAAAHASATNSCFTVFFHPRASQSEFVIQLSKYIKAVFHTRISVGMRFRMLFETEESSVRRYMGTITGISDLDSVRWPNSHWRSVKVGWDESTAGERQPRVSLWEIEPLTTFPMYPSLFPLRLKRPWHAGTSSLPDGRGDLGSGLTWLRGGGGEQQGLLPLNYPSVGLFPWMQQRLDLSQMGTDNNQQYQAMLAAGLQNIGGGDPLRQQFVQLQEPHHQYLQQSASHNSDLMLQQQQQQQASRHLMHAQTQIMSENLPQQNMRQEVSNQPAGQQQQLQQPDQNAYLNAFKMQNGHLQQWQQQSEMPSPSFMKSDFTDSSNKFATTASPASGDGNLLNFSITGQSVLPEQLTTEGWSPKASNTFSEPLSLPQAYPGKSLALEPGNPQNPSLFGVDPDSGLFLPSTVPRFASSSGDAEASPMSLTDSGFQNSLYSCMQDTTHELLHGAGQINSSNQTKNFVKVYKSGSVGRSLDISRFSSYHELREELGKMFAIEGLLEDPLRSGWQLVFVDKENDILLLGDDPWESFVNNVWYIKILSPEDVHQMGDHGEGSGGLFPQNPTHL
UniProt P08588, sequence (whole entry, looked up): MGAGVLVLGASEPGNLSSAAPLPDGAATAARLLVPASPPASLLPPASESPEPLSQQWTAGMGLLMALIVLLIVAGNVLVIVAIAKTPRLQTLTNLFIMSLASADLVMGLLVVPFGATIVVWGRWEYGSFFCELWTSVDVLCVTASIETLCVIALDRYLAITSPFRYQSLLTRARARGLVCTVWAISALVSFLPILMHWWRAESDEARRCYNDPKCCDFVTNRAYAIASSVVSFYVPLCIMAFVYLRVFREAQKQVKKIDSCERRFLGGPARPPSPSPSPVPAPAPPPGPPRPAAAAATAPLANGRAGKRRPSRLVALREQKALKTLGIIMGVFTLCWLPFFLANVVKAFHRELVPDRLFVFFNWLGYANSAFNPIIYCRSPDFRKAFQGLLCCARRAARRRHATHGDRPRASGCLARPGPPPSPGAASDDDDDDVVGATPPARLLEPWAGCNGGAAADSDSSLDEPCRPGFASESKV

Block 1
Sequence: B1 (IAA31)
Technique: two-hybrid
Reading: higher = firmer interaction
B1: IAA31 (Arabidopsis thaliana, UniProt Q8H174); chain MEVSNSCSSFSSSSVDSTKPSPSESSVNLSLSLTFPSTSPQREARQDWPPIKSRLRDTLKGRRLLRRGDDTSLFVKVYMEGVPIGRKLDLCVFSGYESLLENLSHMFDTSIICGNRDRKHHVLTYEDKDGDWMMVGDIPWDMFLETVRRLKITRPERY
| partner | reference | positive tests |
| --- | --- | --- |
| IAA33 (Arabidopsis thaliana, UniProt Q9FKM7) | out of 2 tests | 1 |
| ARF2 727-859 (Arabidopsis thaliana, UniProt Q94JM3) | out of 4 tests | 1 |
| ARF11 500-622 (Arabidopsis thaliana, UniProt Q9ZPY6) | out of 2 tests | 0 |
| ARF10 575-693 (Arabidopsis thaliana, UniProt Q9SKN5) | out of 2 tests | 0 |
| ARF8 699-811 (Arabidopsis thaliana, UniProt Q9FGV1) | out of 2 tests | 2 |
| ARF14 497-605 (Arabidopsis thaliana, UniProt Q9LQE8) | out of 2 tests | 0 |
| ARF7 1030-1164 (Arabidopsis thaliana, UniProt P93022) | out of 2 tests | 1 |
| ARF13 (Arabidopsis thaliana, UniProt Q9FX25) | out of 2 tests | 0 |

Block 2
Target: CCNE1, cyclin fold, Cln2 fusion (human)
Technique: yeast growth competition, sequencing
Sample: yeast
Notes: strong parent motif
Reference: not given
Reading: higher = stronger binding
Starting sequence: viral docking peptide; KKVKRRLFETREL
| Substitution | normalised enrichment score |
| --- | --- |
| KKVARRLFETREL [K4A] | 3.66 |
| KKVKRRLFEAREL [T10A] | 4.83 |
| KKVKARAFETREL [R5A L7A] | 0.133 |
| KKVKRALFETREL [R6A] | 2.13 |
| KAVKRRLFETREL [K2A] | 5.71 |
| KKAKRRLFETREL [V3A] | 3.92 |
| KKVKKRLLETREL [R5K F8L] | 0.232 |
| KKVKRRLFETAEL [R11A] | 6.51 |
| KKVKARLFETREL [R5A] | 1.93 |

Single results of other studies
| Substance | target | test | system | conditions | scale | endpoint | result |
| --- | --- | --- | --- | --- | --- | --- | --- |
| PhoQ, residues 284 288 289 292 302 303 TYGVAM | PhoP, residues 12 14 15 18 19 LQHIR (Escherichia coli, UniProt P23836) | Sort-seq, refers to: YFP reporter | E. coli | PhoQ-PhoP variant library, with: 10 µM Mg2+ | reference: high Mg2+ state, higher = stronger signaling | fold induction | 12.3 |
| CCCN(CCC)C1CCc2c(ccc(O)c2O)C1 (stereo not shown) | Beta-1 adrenergic receptor (ADRB1, Homo sapiens, UniProt P08588) | antagonist | – | – | – | IC50 | ≥ 100 µM |

For quick reference, copied from above (single results of other studies):
| Substance | target | test | system | conditions | scale | endpoint | result |
| --- | --- | --- | --- | --- | --- | --- | --- |
| CCCN(CCC)C1CCc2c(ccc(O)c2O)C1 (stereo not shown) | Beta-1 adrenergic receptor (ADRB1, Homo sapiens, UniProt P08588) | antagonist | – | – | – | IC50 | ≥ 100 µM |
| PhoQ, residues 284 288 289 292 302 303 TYGVAM | PhoP, residues 12 14 15 18 19 LQHIR (Escherichia coli, UniProt P23836) | Sort-seq, refers to: YFP reporter | E. coli | PhoQ-PhoP variant library, with: 10 µM Mg2+ | reference: high Mg2+ state, higher = stronger signaling | fold induction | 12.3 |
